Measurements gathered from unrelated publications.
Parts stem from different laboratories: compare values within a part only. Positions count from the first letter of the parent shown.

Block 1 — technique: DHFR PCA, deep sequencing; matrix: yeast; with: (+)-ABA 0.11 µM; baseline: wild-type fitted maximum; reading: higher = stronger binding; endpoint: relative binding score
Target: ABI1, truncated, D143A, DHFR fusion (Arabidopsis thaliana)
Notes: methotrexate growth selection, single substitutions
Starting sequence: PYL1, truncated, DHFR fusion (Arabidopsis thaliana); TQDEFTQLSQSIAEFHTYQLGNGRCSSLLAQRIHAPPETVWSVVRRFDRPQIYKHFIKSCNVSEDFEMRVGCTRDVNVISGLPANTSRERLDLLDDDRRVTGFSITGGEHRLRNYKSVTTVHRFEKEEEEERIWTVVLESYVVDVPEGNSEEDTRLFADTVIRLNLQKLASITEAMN
Q2N: 29.9%
T1W: 29.8%
R69V: 43.9%
P83R: 18.8%
E67K: 28.9%
L28R: 4.92%
H122V: -2.63%
R163G: 11.8%
C60N: 2.07%
V78T: 25.9%
T6L: 41.4%

Block 2 — technique: universal PBM; molecule type: double-stranded DNA, one strand shown; matrix: in vitro; concentration: not given; reading: higher = stronger binding; endpoint: E-score
Target: Sal-like protein 4, full length isoform B (SALL4, Homo sapiens, UniProt Q9UJQ4-2, residues 1-616)
Notes: 8-mer, flanks averaged, mean of replicates
AGGCTTCG: -0.199
ACGTTGTA: 0.135
CTTAGAGC: -0.0624
CCTATCAA: 0.153
CCCTGGCA: -0.232
AACTCACC: -0.118
AGGGGCGA: -0.325
AGAGCACT: -0.098
CCGGGGAG: -0.376
GGCTGCCC: -0.339
ACTCTTTA: 0.16
TATGAAAA: 0.423
AACCTCAC: -0.0848
GCACACGA: -0.106

Block 3 — technique: RNA Bind-n-Seq; molecule type: RNA; matrix: in vitro; concentration: not given; baseline: input RNA pool; reading: higher = stronger binding; endpoint: bound/input enrichment
Target: RING finger protein unkempt homolog, zinc fingers 1-6, GST-SBP tag (UNK, Homo sapiens, UniProt Q9C0B0, residues 30-357)
UniProt Q9C0B0, sequence (30-357, looked up): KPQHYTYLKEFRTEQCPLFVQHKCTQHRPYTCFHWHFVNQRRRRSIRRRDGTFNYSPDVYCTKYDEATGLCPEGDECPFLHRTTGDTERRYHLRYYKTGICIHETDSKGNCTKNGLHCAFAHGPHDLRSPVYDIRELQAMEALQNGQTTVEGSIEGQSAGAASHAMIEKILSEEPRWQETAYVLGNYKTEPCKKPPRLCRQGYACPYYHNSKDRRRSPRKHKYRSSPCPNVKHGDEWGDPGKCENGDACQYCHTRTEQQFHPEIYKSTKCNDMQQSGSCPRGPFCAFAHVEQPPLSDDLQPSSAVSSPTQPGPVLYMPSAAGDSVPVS
Notes: RNA with constant flanks, human-mouse chimeric sites, ends assumed
Shared flanks, not repeated: GGGAGUUCUACAGUCCGACGAUC … CAACAGAGGAUUGAGCAUCA
UCAGAAGCUGUGCUGGGUCACUUUUCAUAUCCAGAUCCUUCACAGUGGACAGAUGAAGAACUGGGAAUCCCUCCUGAUGACGAGGACUGACACUGUAAACUCUCUGGCACUCUGUACGCA: 0.452 ratio
GUUCGGCUCUGGGAUCAUGCCACAAUGACAGAAGUGAAAUCUCUGAAUUUUAAUAUGUCUGUUAGUAGCAUGGAGUAUAUUCCUGAGGGAGAGAUUUUGGUUAUUACUUAUGGACGAUCU: 0.405 ratio
GCAAAGGAUGAUGAGGCGGCAGCUGUUGCCCUUUCCUCUCUCGUUCAUGCUUUGGAUGAGUUAAACAUGGUCGCCAUAGUUCGAUAUGCUUAUGACAAAAGAUCUAAUCCUCAAGUCGGU: 0.822 ratio
AAAGAGAAACUAAAGCAACUAAUAGAGAAGAGGAUUGGCAAAGAGAAUUUCAUAGAGAAACUAGGAUUUUAUUAGCAACAUGAGUUAUAUUCCAGAGCGUCUCAGAAAACCCCAGCCAAC: 8.42 ratio
UGUAGUUUCUUGAUUUAUCAUUUUUCUCUUUUCUUUCAGAUCGUCAGGAAAAGCCUAAAGAUUAGACUGUAAGAAAAACAGAAGCCAUGUUUCGAAGACCUGUGUUACAGGUAUUUCGUC: 0.203 ratio

Block 4 — technique: protein binding microarray; molecule type: double-stranded DNA, one strand shown; matrix: in vitro; concentration: not given; baseline: not given; reading: higher = stronger binding; endpoint: E-score
Target: Histone acetyltransferase KAT6A, both winged helices, GST fusion (KAT6A, Homo sapiens, UniProt Q92794, residues 1-181)
Notes: 8-mer, flanks averaged, mean of 2 arrays, mostly near background
Construct (chain): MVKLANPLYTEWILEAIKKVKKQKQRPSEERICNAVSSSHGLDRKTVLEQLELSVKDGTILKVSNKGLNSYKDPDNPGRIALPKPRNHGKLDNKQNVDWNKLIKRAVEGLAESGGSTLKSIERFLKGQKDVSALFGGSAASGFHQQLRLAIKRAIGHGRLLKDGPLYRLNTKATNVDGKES
ATGAAAAG: -0.0854
GCCGACAA: 0.188
AGGGTCAC: -0.0919
AAGACCTG: -0.266
GTTCCGTA: 0.206
CGATTTTA: -0.0478
CTACCCAC: -0.181
ACTGGGCA: -0.32
CATGGTGC: 0.00908
AGTAATAT: -0.0143
CGATCGAA: 0.0446

Block 5 — technique: RNA Bind-n-Seq; molecule type: RNA; matrix: in vitro; concentration: 365 nM; baseline: no-protein control; reading: higher = stronger binding; endpoint: RBNS enrichment (R)
Target: RNA binding protein fox-1 homolog 2, RRM domain, GST-SBP tag (RBFOX2, Homo sapiens, UniProt O43251-10, residues 100-194)
Notes: natural RNA segment, single round, ends assumed
Shared flanks, not repeated: GGGAGUUCUACAGUCCGACGAUC … UGGAAUUCUCGGGUGCCAA
Target sequence (chain): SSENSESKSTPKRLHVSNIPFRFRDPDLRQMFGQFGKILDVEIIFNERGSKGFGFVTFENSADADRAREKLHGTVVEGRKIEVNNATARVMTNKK
AUGUAGUUUUUACAGCCUGAAAAUUAACUGCCAUGAACAUUCUUUGGUGAUGUAAGCAAGUAAAACCCAAUGGACUCUGUUGUGAUAUCCUUUUGUGUUCCAGCCUAGGC: 2.7
UUUAUACUGUUCACUGUACAAAAGCUUACAGUUUUCCACAAGGACUUUAAUAACUAGCUGGGGAAAAGAUUAUGUAAUUACUUGGGGCUCUGCAGGACCUUCUCUGUCCA: 0.45
GGCUGGAACCAUAAGAAGAAUGUUUAUCAGCACGUUCAUUUAUUAUUUUGGAUUUGGAACUUGGCUUUGUUUUUCAAUAGUGACAAGAAUGGUUCAGUUCUAGGAAUGUU: 2.09
UGUUCUUUUCAACCUCUGCCCACCCGUGCAUGUCAUCACAAACAUUUGCUCUUAAGUUACAAGAGACCACAUCCACCCAGGGAUUAGGGUUCAAGUAGCAGCUGCUAACC: 1.07
CUUUCCUGGGCUUUGCUUUCUUAACUCCCACCAUCCAGGCCUCCUCUAGAGUCCACUGAGUCACAAUGGGGGCACAUGCUCAUGACUGUGUCACUUAGGGGCGGUCCCCA: 0.45
AAGCUAAUAGGAGUCUGACCCGAGGGCCUGCUGCUUCCUGGUUAAGUAUCUUUUGAGAUUCUAGAACACAUGGGAGCUUUUUAUUUUCGGGGAAAAACCGUAUUUUUUUC: 0.326
AAGGAGGAAGUUCUGACUUUUCAGGGCUACCUUAUUUCUACUAAGGACCCAGAGCAGGCCUGUCCAUGCCAUUCCUUCGCACAGAUGAAACUGAGCUGGGACUGGAAAGG: 0.185
AGAAUGUGCAGUGUCUUGUAACAACUAAUUAUAAUGCAAAUUAGGGCUACAUUGUAAUCUGCUUUGUUAAUGAAAAUGAUAAAACAGAAUAUUGACAAGCUAGGACACCU: 0.478
GGGAGGUCGAUGAGCCUGUGCUGGCAUCCGCGGGCCCCACGCUUUGCCAACUCCUCCAGCCACAGGCAAGGCCACGGCUCCGGGCUGUUGCGCUCUAAGGGUUCUGUGAU: 0.449

Block 6 — technique: competition protein-binding microarray; molecule type: double-stranded DNA, one strand shown; matrix: in vitro; concentration: 2 µM; with: Cbf1 competitor, 0.05 µM; reading: higher = stronger binding; endpoint: fluorescence intensity; shared flanks, not repeated: … GTCTTGATTCGCTTGACGCTGCTG
Target: Phosphate system positive regulatory protein PHO4, full length, GST-tagged (PHO4, Saccharomyces cerevisiae, UniProt P07270, residues 1-312)
Notes: whole 60-bp probe, lowest competitor level
Target sequence (chain): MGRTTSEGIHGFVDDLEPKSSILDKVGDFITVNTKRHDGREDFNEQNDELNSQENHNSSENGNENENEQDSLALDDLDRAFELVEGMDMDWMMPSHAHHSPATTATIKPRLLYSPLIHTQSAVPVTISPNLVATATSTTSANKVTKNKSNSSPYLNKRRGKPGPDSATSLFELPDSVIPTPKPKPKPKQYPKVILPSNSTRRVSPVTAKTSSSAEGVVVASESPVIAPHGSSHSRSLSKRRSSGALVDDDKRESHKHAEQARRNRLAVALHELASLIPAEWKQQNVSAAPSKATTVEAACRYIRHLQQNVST
AGCTGGCAGAACCTCCATGTGCTCCAGGTCTCTGAT: 10800 a.u.
CGTCCTAGTGATTGGGTTGTGGGTGCCATGAGGAAG: 7280 a.u.
GTTTTGAATGTTTTCCTCGTGTGGAAGTAGAGTAGG: 9830 a.u.
CGCCTAAGGAAAGAGCCCGTGAAATCATCAACAAGT: 4310 a.u.
CATGAAACTCGCTGTCAGCTGAAATTTCACCTCAGT: 2970 a.u.
CATTGGCAGAACCCGATCGTGGGACAGAACACCAAC: 5480 a.u.
TGCGCAACAACTTGTCACAACACTTTATGTCTAGAA: 3800 a.u.
CATTGCTAGCTCCTCTCCGTGACGGTTATTCAGTGT: 4240 a.u.
CTTTCCCGATCTTGTAATGTGGGTGTAGCACATTTG: 5810 a.u.
CGGGCTGCCCCGGGTCACGTGACTCGGACACCGCCC: 10700 a.u.

Block 7 — technique: protein-binding microarray; molecule type: double-stranded DNA, one strand shown; matrix: in vitro; concentration: 2540 nM top; notes: 60-bp whole probe; with: salmon DNA 0.4 mg/ml; baseline: random background probes; reading: higher = stronger binding; endpoint: fitted relative affinity; shared flanks, not repeated: GCCTAGCAC … GTCTTGATTCGCTTGACGCTGCTG
Target: Interferon regulatory factor 3, full length, phosphomimetic (IRF3, Homo sapiens, UniProt Q14653, residues 1-427, S386D/S396D/S398D/S402D/T404D/S405D)
Residues (chain): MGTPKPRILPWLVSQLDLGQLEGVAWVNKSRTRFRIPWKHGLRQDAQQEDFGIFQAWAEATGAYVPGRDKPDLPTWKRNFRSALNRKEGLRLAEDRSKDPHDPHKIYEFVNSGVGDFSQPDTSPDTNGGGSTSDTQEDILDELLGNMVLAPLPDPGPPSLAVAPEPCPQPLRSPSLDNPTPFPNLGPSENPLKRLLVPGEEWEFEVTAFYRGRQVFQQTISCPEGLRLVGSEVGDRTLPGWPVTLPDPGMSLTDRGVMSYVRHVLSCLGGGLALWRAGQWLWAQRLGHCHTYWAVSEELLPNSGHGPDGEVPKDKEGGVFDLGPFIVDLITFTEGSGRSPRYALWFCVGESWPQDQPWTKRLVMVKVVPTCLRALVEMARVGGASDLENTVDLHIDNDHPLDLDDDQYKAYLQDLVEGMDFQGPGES
TCACCTTTATGTACTCTCACTGTGCTA: 1.2 z-score
ATAAAAATCTTTGTTGGAGGGGTGCTA: -0.564 z-score
CTAGATTCCAGTTTCGATTAGTGCTAG: 5.07 z-score
TTTGGTATCGACACTGGGTTAGTGCTA: 0.539 z-score
TTAGGTTTTCTTCTCCTTTAGTGCTAG: 3.78 z-score
GACGGTCTCGGTCACGGGACGTGCTAG: 0.21 z-score
TTTTTTTTTTTTTTTGTATTGTGCTAG: 1.58 z-score
TTAGGTTCCGGTTTCGATTAGTGCTAG: 6.86 z-score
TTAGGTTTCGACTATCGTTTAGTGCTA: 2.42 z-score
TCAGGTAGCCTTATCCCACTGTGCTAG: 1.29 z-score

Block 8 — technique: RNA Bind-n-Seq; molecule type: RNA; matrix: in vitro; concentration: 200 nM; notes: whole 134-nt RNA, ends assumed; with: 150 mM LiCl; baseline: input library; reading: higher = stronger binding; endpoint: log2 enrichment; all molecules: 7-deaza-guanosine replaces G
Target: Ras GTPase-activating protein-binding protein 1, full length (G3BP1, Homo sapiens, UniProt Q13283)
UniProt Q13283, sequence (whole entry, looked up): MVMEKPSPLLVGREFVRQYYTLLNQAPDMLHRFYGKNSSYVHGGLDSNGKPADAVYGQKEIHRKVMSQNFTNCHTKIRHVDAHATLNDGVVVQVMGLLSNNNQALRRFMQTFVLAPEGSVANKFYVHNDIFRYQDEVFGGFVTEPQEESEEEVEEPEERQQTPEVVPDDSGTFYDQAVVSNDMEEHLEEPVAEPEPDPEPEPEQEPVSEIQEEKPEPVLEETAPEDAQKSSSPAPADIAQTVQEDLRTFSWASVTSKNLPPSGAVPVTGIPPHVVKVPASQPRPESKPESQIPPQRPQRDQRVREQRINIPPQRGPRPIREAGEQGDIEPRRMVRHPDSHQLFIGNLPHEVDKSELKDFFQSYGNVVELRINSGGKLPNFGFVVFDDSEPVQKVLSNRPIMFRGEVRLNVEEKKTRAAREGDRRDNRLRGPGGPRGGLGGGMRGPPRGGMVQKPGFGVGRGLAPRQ
Shared flanks, not repeated: GGGAGUUCUACAGUCCGACGAUC … UGGAAUUCUCGGGUGUCAAGG
CAAGUCCUGUGCUACACAUCGUAUGUACCGAAUCGGCCCGGCCCGGGGCCCGGGGAAAGUAUUAUGUUACGCCGUUCGGAUCUGCACUUC: -0.831
CACAGACAACACGCACCCACACAGACACAGAGGGAAGGGGUUGGGAUGGGGACAGGGUGCACAGCAGGGCGGGGUAGCACCCCAGCCCCU: 1.47
ACCAUGCAGGUGGGCAUCUUUGGGAAGUGGGGCACGGGGGGGAUAGGGAGGGGGGUAACACUUUGGGAACAGGUGGUCCCAGGUCGUUUC: 0.0283
UCAAGUCCUGUGCUACACAUCGUAUGUACCGAAUCGGGCCGGGGCCGGGCCGGGAAAGUAUUAUGUUACGCCGUUCGGAUCUGCACUUCC: 0.441
CUCAAGUCCUGUGCUACACAUCGUAUGUACCGAAUCGGGUUGGGGUUGGGUUGGAAAGUAUUAUGUUACGCCGUUCGGAUCUGCACUUCC: 0.35

Repeated from above (block 3):
UCAGAAGCUGUGCUGGGUCACUUUUCAUAUCCAGAUCCUUCACAGUGGACAGAUGAAGAACUGGGAAUCCCUCCUGAUGACGAGGACUGACACUGUAAACUCUCUGGCACUCUGUACGCA: 0.452 ratio
GUUCGGCUCUGGGAUCAUGCCACAAUGACAGAAGUGAAAUCUCUGAAUUUUAAUAUGUCUGUUAGUAGCAUGGAGUAUAUUCCUGAGGGAGAGAUUUUGGUUAUUACUUAUGGACGAUCU: 0.405 ratio
GCAAAGGAUGAUGAGGCGGCAGCUGUUGCCCUUUCCUCUCUCGUUCAUGCUUUGGAUGAGUUAAACAUGGUCGCCAUAGUUCGAUAUGCUUAUGACAAAAGAUCUAAUCCUCAAGUCGGU: 0.822 ratio
AAAGAGAAACUAAAGCAACUAAUAGAGAAGAGGAUUGGCAAAGAGAAUUUCAUAGAGAAACUAGGAUUUUAUUAGCAACAUGAGUUAUAUUCCAGAGCGUCUCAGAAAACCCCAGCCAAC: 8.42 ratio
UGUAGUUUCUUGAUUUAUCAUUUUUCUCUUUUCUUUCAGAUCGUCAGGAAAAGCCUAAAGAUUAGACUGUAAGAAAAACAGAAGCCAUGUUUCGAAGACCUGUGUUACAGGUAUUUCGUC: 0.203 ratio
